Assay results collected from several papers.
Each line is one published result; not all experiments were run side by side. “And” joins repeats or separate records; there may be more than shown.
Target: BDNF/NT-3 growth factors receptor (NTRK2, Homo sapiens, UniProt Q16620)

Compound | assay | system | setting | how to read | endpoint | value
COCC12C(=O)NC3C4(C(OC)CC1O)C1CC5(O)C(OC)C(O)C(OC(C)=O)(C1C5OC(=O)c1ccccc1)C3(O)C(OC)C24 (stereo not shown) | kinase activity, inhibitor, ProQinase kinase profiling | – | 25 µM | relative to: control | remaining activity | 93% and 94%
Nc1ncc(-c2cc(-c3cnn(CC(F)(F)F)c3)ncc2F)nc1C(=O)NC1CNCC(F)C1 (stereo not shown) | enzyme activity | – | 1 µM | relative to: DMSO control | remaining activity | 91%
O=C=[N][Ru-4]123([n]4c5ccc(O)cc5c5c6c(c7cc(F)c[n+]1c7c54)C(=O)NC6=O)[S+]1CC[S+]2CC[S+]3CC1 (stereo not shown) | enzyme activity | – | 100 nM, human enzyme, together with: 10 µM ATP | relative to: untreated | remaining activity | 75%
Nc1ncc2c(n1)-c1c([nH]c3ccc(C4=CCOCC4)cc13)CCC2 | binding, competition with immobilised ligand | – | 1 µM | – | remaining binding | 64%
COc1c(OCCCN2CCOCC2)ccc2c1N=C(NC(=O)c1cnc(N)nc1)N1CCN=C21 | kinase activity, inhibitor | – | 1 µM | relative to: untreated control | remaining activity | 134%
O=C(Nc1ccc(C(=O)Nc2ccc3[nH]ncc3c2)c(Cl)c1)Nc1cc(C(F)(F)F)ccc1F | enzyme activity, inhibitor, FRET | – | 1 µM | – | inhibition | 12.2%
C=CC(=O)Nc1cccc(-c2cnc3[nH]cc(C(=O)NC(C)(C)C)c3n2)c1 | kinase activity | – | 0.1 µM | – | inhibition | 9% and 3%
COc1c(Cl)cccc1Nc1c(-c2ccncc2C#C[C@@]2(C)CCCN2C(=O)/C=C/CN(C)C)[nH]c2c1C(=O)NCC2 | cell-free assay, competition with immobilised ligand | – | 3 µM | – | remaining binding | 80%
Cc1cccc(O[C@H]2CCC[C@@H](C(C)CNCc3ccncc3)C2)c1 (relative stereo) | cell-free assay | – | 10 µM | – | inhibition | -6%
CNC(=O)c1ccc(-c2cc(=O)c3ccc4[nH]c(C(F)(F)F)nc4c3o2)cc1 | agonist, MTT | – | concentration not given, together with: staurosporine | – | antiapoptotic activity | decreased
CCN1CCN(Cc2ccc(C(=O)Nc3ccc(C)c(NCc4cnc5[nH]ccc5c4OC)c3)cc2C(F)(F)F)CC1 | binding, competition with immobilised ligand | – | 1 µM | – | remaining binding | 2.3%
CCn1nc(Cl)c2c1-c1cnc(N)c(c1)O[C@H](C)c1cc(F)ccc1-c1nn(C)cc1C2 | receptor phosphorylation | NG | – | – | Hill slope | 1.98
O=C(Nc1cc(C(F)(F)F)ccc1F)Nc1ccc(C(=O)Nc2ccc3[nH]ncc3c2)cc1C(F)(F)F | enzyme activity, inhibitor, FRET | – | 1 µM | – | inhibition | 27.7%
COc1cc(Nc2nc(C)cc(-c3cnn4nc(OC)ccc34)n2)cc(C(F)(F)F)c1 | binding, competition with immobilised ligand | – | 1 µM | – | remaining binding | 96%
CNC(=O)C[C@H](Cc1ccc(C#N)cc1)NC(=O)c1cc(-c2ccc(CN[C@H](C)c3ccc(C)cc3)o2)ccc1Cl | enzyme activity, inhibitor | – | 1 µM | – | activity vs control | 106%
Cc1cc(NC(=O)Nc2cc(C(F)(F)F)ccc2F)ccc1C(=O)Nc1ccc2[nH]ncc2c1 | enzyme activity, inhibitor, FRET | – | 1 µM | – | inhibition | 22.9%
